Assay results collected from several papers.
Protocols differ between the studies behind these lines. Numbers after ± are the reported error.

SMILES | test | system | conditions | tissue uptake
CCCC[C@H]1C(=O)N(C)[C@@H](CCCC)C(=O)N[C@@H](CCCNC(=O)CN2CCN(CC(=O)O)CCN(CC(=O)O)CCN(CC(=O)O)CC2)C(=O)N[C@H](C(=O)NCC(N)=O)CSCC(=O)N[C@@H](Cc2ccc(O)cc2)C(=O)N(C)[C@@H](C)C(=O)N[C@@H](CC(N)=O)C(=O)N2CCC[C@H]2C(=O)N[C@@H](Cc2c[nH]cn2)C(=O)N[C@@H](CC(C)C)C(=O)N(C)CC(=O)N[C@@H](Cc2c[nH]c3ccccc23)C(=O)N[C@@H](CO)C(=O)N[C@@H](Cc2c[nH]c3ccccc23)C(=O)N1C [gallium-68 labelled] |  | NOD/SCID mice, CHO-hPD-L1 xenograft, blood | 60 min, with: blocking agent 50 µg co-injected | 10.1 ± 1.82 %ID/g
CC(C)C[C@@H](NC(=O)[C@@H](CCCNC(=N)N)NC(=O)[C@@H](Cc1c[nH]cn1)NC(=O)[C@@H](Cc1c[nH]c2ccccc12)NC(=O)[C@@H](Cc1c[nH]cn1)NC(=O)[C@@H](Cc1ccccc1)NC(=O)[C@H](NC(=O)[C@@H](Cc1ccc(O)cc1)NC(=O)CNC(=O)CNC(=O)CCOCCOCCOCCNC(=O)CN1CCN(CC(=O)O)CCN(CC(=O)O)CC1)[C@H](C)O)C(=O)N[C@H](CC(N)=O)C(=O)N1CCC[C@@H]1C(=O)O [gallium-68 labelled] | gamma counting | C57BL/6 mice, male, muscle | intravenous, 1.85 MBq, 120 min | 0.52 ± 0.09 %ID/g
CC[C@H](C)[C@H](NC(=O)[C@H](CCCNC(=N)N)NC(=O)[C@H](CCCCN)NC(=O)[C@H](Cc1ccc(O)cc1)NC(=O)[C@H](CC(=O)O)NC(=O)[C@H](C)NC(=O)CNC(=O)CCOCCOCCOCCNC(=O)CN1CCN(CC(=O)O)CCN(CC(=O)O)CCN(CC(=O)O)CC1)C(=O)N[C@H](C(=O)N[C@H](C(=O)N[C@@H](CCCCN)C(=O)N[C@H](C(=O)N[C@@H](CC(N)=O)C(N)=O)C(C)C)C(C)C)[C@@H](C)O [copper-64 labelled] | ex vivo gamma counting | C57BL/6J male mice, B16-F10 tumour, muscle | intravenous, 1.85 MBq, 100 min | 0.197 ± 0.008 %ID/g
C[C@H](O)[C@@H](NC(=O)[C@H]1CCCN1C(=O)[C@@H](CCCCN)NC(=O)[C@@H](CO)NC(=O)[C@@H](Cc1ccc(O)cc1)NC(=O)[C@@H](CC(N)=O)NC(=O)CCOCCOCCOCCNC(=O)CN1CCN(CC(=O)O)CCN(CC(=O)O)CCN(CC(=O)O)CC1)C(=O)N[C@H](CC(=O)O)C(=O)N[C@H](CCCNC(=N)N)C(=O)N[C@H](CCC(N)=O)C(=O)N[C@H](Cc1ccc(O)cc1)C(=O)N[C@H](Cc1c[nH]cn1)C(=O)N[C@H](Cc1ccccc1)C(N)=O [gallium-68 labelled] |  | BALB/c nude mice U-87 MG tumour, muscle | intravenous, 1.85 MBq, 0.5 h, radiolabelled | 0.71 ± 0.37 %ID/g
CC[C@H](C)[C@H](NC(=O)[C@H](CCCCN)NC(=O)CNC(=O)[C@H](CC(C)C)NC(=O)[C@H](Cc1ccccc1)NC(=O)[C@H](CCCCN)NC(=O)[C@H](CO)NC(=O)[C@H](Cc1ccccc1)NC(=O)[C@H](Cc1c[nH]c2ccccc12)NC(=O)[C@H](CCC(N)=O)NC(=O)[C@@H](NC(=O)[C@H](Cc1ccccc1)NC(=O)CCCCCNC(=O)CN1CCN(CC(=O)O)CCN(CC(=O)O)CCN(CC(=O)O)CC1)C(C)C)C(=O)N[C@@H](CCC(=O)O)C(=O)N1CCC[C@H]1C(=O)N[C@@H](CC(=O)O)C(=O)N[C@H](C(=O)N[C@@H](CO)C(=O)N[C@@H](CCC(N)=O)C(=O)N[C@H](C(=O)N[C@@H](CCC(N)=O)C(=O)N[C@@H](CC(=O)O)C(=O)N1CCC[C@H]1C(=O)N[C@@H](CC(N)=O)C(=O)N[C@@H](CC(=O)O)C(=O)N[C@@H](CCC(N)=O)C(=O)N[C@@H](Cc1ccc(O)cc1)C(=O)N[C@@H](CCC(=O)O)C(=O)N1CCC[C@H]1C(=O)N[C@@H](Cc1ccccc1)C(=O)O)C(C)C)C(C)C [copper-64 labelled] |  | C57BL/6 mice, male, tumour-free, heart | 2 h | 2.22 ± 0.2 %ID/g
CSCC[C@H](NC(=O)CNC(=O)[C@H](CCCCN)NC(=O)[C@H](CC(C)C)NC(=O)[C@@H]1CCCN1C(=O)[C@H](CO)NC(=O)[C@H](Cc1c[nH]cn1)NC(=O)[C@H](Cc1c[nH]c2ccccc12)NC(=O)[C@H](CCCNC(=N)N)NC(=O)[C@H](CC(C)C)NC(=O)[C@H](CCCNC(=N)N)NC(=O)[C@H](Cc1c[nH]c2ccccc12)NC(=O)[C@H](CS)NC(=O)CCCCCNC(=O)CN1CCN(CC(=O)O)CCN(CC(=O)O)CCN(CC(=O)O)CC1)C(=O)O [copper-64 labelled] | PET imaging | BALB/c nude mice, tumor | intravenous, dose not given, 55 h, Huh-7 tumour-bearing | 4.05 ± 0.37 %ID/g
CC[C@H](C)[C@H](NC(=O)[C@H](CCCNC(=N)N)NC(=O)[C@H](CCCCN)NC(=O)[C@H](Cc1ccc(O)cc1)NC(=O)[C@H](CC(=O)O)NC(=O)[C@H](C)NC(=O)CNC(=O)CCOCCOCCOCCNC(=O)CN1CCN(CC(=O)O)CCN(CC(=O)O)CCN(CC(=O)O)CC1)C(=O)N[C@H](C(=O)N[C@@H](CC(C)C)C(=O)N[C@@H](CCCCN)C(=O)N[C@H](C(=O)N[C@@H](CC(N)=O)C(N)=O)C(C)C)[C@@H](C)O [copper-64 labelled] | ex vivo gamma counting | C57BL/6J male mice, B16-F10 tumour, muscle | intravenous, 1.85 MBq, 100 min | 0.423 ± 0.245 %ID/g
[2H]C([2H])([18F])[C@]([2H])(N)C(=O)O | PET | athymic nude mice, U-87 MG, muscle | dose not given, 20 min post-injection | 1.21 ± 0.1 %ID/cc

A few entries again:
SMILES | test | system | conditions | tissue uptake
C[C@H](O)[C@@H](NC(=O)[C@H]1CCCN1C(=O)[C@@H](CCCCN)NC(=O)[C@@H](CO)NC(=O)[C@@H](Cc1ccc(O)cc1)NC(=O)[C@@H](CC(N)=O)NC(=O)CCOCCOCCOCCNC(=O)CN1CCN(CC(=O)O)CCN(CC(=O)O)CCN(CC(=O)O)CC1)C(=O)N[C@H](CC(=O)O)C(=O)N[C@H](CCCNC(=N)N)C(=O)N[C@H](CCC(N)=O)C(=O)N[C@H](Cc1ccc(O)cc1)C(=O)N[C@H](Cc1c[nH]cn1)C(=O)N[C@H](Cc1ccccc1)C(N)=O [gallium-68 labelled] |  | BALB/c nude mice U-87 MG tumour, muscle | intravenous, 1.85 MBq, 0.5 h, radiolabelled | 0.71 ± 0.37 %ID/g
